Experimental data pooled from the literature.
Each line is one published result; not all experiments were run side by side.
Nuclear receptor subfamily 2 group C member 2 ligand-binding domain: Nuclear receptor subfamily 2 group C member 2, ligand-binding domain (Homo sapiens, UniProt P49116)
UniProt P49116, sequence (whole entry, looked up): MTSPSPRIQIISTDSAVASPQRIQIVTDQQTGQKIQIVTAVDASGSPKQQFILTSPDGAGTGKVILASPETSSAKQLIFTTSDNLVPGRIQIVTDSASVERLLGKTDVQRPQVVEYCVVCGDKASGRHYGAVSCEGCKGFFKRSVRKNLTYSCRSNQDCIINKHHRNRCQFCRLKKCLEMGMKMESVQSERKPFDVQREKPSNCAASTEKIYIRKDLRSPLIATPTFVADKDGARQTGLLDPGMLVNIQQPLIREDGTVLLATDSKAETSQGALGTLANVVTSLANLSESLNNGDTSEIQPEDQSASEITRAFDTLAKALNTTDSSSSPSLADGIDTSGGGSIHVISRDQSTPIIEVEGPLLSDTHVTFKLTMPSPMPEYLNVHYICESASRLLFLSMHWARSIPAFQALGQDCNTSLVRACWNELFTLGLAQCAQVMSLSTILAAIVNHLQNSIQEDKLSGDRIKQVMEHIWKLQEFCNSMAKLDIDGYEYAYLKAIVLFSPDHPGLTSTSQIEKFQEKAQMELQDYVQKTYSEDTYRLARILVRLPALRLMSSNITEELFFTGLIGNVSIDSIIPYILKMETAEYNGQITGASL

| Compound | target or system | assay | test system | conditions | endpoint | value |
| --- | --- | --- | --- | --- | --- | --- |
| COc1cc2c(NC3CCN(C(C)C)CC3)nc(C3CCCCC3)nc2cc1OCCCN1CCCC1 | OCI-Ly1 | – | – | 1 µM, 120 h | viability | 177% |
| C[C@@H](Oc1cc(-c2cnn(C3CCNCC3)c2)cnc1N)c1c(Cl)ccc(F)c1Cl | – | – | human patients, plasma | oral, dose not given, cycle 2 day 1, mean, added: avelumab | AUCtau | 3300 ng·h/mL |
| Nc1ncnc2nc[nH]c12 | Nuclear receptor subfamily 2 group C member 2 ligand-binding domain | SPR imaging | – | – | Kd | 23.7 pM |
| Fc1ccc([C@@H]2CCNC[C@H]2COc2ccc3c(c2)OCO3)cc1 | – | – | human, CYP2D6 normal metabolizers | oral, 20 mg, steady state, dosing interval 24 h, geometric mean | AUCtau | 361 ng·h/mL |
| Cc1noc(C)c1-c1cc(C(O)(c2ccccn2)c2ccccn2)c2nc(C3CC3)[nH]c2c1 | – | – | human male, fasted, plasma | oral, 6 mg once daily, cycle 1 day 8 | AUCtau | 3130 ng·h/mL |
| CCCCCCCOc1ccc(CCC(N)(CO)CO)cc1C(F)(F)F.Cl | – | – | healthy male humans, plasma | 0.5 mg, day 21, mean | AUCtau | 73.6 ng·h/mL |
| Cc1cc(C)c(CNC(=O)c2cc(Cl)c3c(c2C)O[C@@](C)([C@H]2CC[C@H](N(C)C)CC2)O3)c(=O)[nH]1 | – | – | human, plasma | oral, 200 mg, cycle 1 day 1, mean | AUCtau (unbound) | 499 ng·h/mL |
| Cc1cc(-c2nccc3c2ccn3CC(=O)Nc2ccc(-c3cnccn3)cn2)ccn1 | – | – | human, plasma | oral, 15 mg once daily, day 16, geometric mean | AUCtau | 1.86 µM·h |
| CC[C@H](C)n1cc(C)c2c(C(=O)NCc3c(C)cc(C)[nH]c3=O)cc(-c3ccc(N4CCNCC4)nc3)cc21 | OCI-Ly1 | – | – | 1 µM, 120 h | viability | 130% |
| C[C@H]1Oc2cc(cnc2N)-c2c(nn(C)c2C#N)CN(C)C(=O)c2ccc(F)cc21 | – | – | human patients, plasma | oral, dose not given, cycle 2 day 1, mean, added: avelumab | AUCtau | 6280 ng·h/mL |
| CS(=O)(=O)Nc1ccc([N+](=O)[O-])cc1Oc1ccccc1 | Nuclear receptor subfamily 2 group C member 2 ligand-binding domain | binding | – | – | Kd | 968 pM |
| C=CC(=O)Nc1cc(Nc2nccc(Nc3cc(Cl)c(F)cc3C(C)(C)O)n2)c(OC)cc1N1CC[C@@H](N(C)C)C1 | – | – | human patients, plasma | oral, 100 mg daily, cycle 2 day 1, geometric mean | AUCtau | 4370 ng·h/mL |
